{"data": "Experimental data collected from several papers", "note": "A part holds a random share of what one study measured.", "chain of UniProt Q15139 (whole entry, looked up)": "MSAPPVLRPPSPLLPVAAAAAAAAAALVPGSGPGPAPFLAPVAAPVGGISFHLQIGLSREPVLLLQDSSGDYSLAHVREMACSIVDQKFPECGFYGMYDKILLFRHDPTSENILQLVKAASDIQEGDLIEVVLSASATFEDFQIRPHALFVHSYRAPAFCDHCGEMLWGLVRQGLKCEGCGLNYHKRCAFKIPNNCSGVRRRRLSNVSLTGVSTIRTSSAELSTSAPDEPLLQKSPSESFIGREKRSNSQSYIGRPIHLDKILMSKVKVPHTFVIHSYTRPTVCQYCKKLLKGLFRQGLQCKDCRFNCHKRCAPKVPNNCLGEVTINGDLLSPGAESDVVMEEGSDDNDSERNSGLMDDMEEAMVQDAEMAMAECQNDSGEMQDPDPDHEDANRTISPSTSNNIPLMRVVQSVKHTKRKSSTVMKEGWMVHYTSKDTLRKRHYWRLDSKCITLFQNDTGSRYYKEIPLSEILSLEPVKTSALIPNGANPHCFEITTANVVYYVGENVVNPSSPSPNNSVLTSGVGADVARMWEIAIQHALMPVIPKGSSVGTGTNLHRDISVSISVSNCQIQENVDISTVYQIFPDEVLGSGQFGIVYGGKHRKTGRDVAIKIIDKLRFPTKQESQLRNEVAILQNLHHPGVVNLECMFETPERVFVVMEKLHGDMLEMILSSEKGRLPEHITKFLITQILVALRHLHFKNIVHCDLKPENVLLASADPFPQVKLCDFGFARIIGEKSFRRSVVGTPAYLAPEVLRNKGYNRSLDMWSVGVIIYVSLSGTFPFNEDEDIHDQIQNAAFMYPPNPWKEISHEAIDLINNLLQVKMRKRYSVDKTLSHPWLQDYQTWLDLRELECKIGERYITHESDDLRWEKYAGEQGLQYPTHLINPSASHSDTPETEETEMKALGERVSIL", "chain of UniProt Q08345 (whole entry, looked up)": "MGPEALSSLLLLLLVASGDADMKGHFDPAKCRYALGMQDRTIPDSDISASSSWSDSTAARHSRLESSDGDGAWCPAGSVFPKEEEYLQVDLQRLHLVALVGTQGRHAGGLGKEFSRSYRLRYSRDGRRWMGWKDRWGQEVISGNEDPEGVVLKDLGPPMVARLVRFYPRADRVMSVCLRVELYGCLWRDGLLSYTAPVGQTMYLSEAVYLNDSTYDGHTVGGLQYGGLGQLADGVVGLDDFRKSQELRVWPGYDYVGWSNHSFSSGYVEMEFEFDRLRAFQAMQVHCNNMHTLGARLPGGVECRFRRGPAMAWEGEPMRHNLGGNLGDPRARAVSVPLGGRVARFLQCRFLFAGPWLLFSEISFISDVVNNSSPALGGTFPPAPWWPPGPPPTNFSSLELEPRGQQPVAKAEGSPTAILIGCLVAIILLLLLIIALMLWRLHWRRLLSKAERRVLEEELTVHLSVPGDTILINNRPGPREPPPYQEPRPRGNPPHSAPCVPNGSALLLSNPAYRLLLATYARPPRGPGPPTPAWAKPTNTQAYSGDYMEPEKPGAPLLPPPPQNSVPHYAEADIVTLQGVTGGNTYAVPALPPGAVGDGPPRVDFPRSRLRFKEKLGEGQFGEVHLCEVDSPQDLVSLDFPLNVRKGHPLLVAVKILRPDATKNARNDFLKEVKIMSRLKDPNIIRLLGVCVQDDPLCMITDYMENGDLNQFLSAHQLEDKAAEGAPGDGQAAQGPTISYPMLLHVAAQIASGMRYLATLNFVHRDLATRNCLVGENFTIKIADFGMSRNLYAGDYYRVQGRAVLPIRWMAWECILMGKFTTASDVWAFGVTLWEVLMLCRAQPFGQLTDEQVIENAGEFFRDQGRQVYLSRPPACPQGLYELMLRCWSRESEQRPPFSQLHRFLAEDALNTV", "chain of UniProt P54762 (whole entry, looked up)": "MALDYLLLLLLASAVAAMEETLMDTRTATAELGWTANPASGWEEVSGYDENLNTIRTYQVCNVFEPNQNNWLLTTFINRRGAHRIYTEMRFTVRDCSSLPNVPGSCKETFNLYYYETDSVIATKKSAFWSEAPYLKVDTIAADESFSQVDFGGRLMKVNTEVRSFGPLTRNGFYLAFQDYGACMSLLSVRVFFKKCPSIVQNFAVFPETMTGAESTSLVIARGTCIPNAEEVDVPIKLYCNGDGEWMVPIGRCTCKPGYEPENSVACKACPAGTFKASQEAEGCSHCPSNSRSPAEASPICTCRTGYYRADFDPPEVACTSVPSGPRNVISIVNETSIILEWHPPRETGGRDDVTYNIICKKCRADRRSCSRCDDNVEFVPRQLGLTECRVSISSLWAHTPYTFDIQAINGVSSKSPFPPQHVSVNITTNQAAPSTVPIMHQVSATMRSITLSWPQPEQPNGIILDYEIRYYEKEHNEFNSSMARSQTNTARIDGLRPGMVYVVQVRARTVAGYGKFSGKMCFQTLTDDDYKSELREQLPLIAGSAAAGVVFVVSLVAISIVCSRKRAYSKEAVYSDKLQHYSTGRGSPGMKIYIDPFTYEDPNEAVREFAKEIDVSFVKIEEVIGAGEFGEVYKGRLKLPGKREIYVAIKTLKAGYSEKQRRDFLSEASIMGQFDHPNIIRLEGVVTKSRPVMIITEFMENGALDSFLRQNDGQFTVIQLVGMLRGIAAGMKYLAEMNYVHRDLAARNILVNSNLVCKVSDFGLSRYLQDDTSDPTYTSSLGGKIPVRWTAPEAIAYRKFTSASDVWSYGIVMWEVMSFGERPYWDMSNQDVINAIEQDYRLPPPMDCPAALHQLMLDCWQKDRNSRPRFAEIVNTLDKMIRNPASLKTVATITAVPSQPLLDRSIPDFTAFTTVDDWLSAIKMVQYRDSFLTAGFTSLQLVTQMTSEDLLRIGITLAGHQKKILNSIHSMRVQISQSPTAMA", "chain of UniProt Q9Y243 (whole entry, looked up)": "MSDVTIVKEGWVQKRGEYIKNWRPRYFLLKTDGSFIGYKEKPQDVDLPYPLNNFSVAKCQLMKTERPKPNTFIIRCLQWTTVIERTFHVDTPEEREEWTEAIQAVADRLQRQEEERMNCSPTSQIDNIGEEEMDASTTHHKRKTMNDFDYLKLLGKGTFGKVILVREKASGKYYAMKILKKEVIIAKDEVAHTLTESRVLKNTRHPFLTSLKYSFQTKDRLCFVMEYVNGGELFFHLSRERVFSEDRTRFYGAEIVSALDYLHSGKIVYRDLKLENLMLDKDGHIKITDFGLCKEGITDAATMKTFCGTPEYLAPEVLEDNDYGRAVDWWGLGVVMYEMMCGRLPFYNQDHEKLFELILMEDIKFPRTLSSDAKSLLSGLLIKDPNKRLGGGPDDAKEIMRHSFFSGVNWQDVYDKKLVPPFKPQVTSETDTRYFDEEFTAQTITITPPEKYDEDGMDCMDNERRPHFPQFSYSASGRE", "chain of UniProt Q12866 (whole entry, looked up)": "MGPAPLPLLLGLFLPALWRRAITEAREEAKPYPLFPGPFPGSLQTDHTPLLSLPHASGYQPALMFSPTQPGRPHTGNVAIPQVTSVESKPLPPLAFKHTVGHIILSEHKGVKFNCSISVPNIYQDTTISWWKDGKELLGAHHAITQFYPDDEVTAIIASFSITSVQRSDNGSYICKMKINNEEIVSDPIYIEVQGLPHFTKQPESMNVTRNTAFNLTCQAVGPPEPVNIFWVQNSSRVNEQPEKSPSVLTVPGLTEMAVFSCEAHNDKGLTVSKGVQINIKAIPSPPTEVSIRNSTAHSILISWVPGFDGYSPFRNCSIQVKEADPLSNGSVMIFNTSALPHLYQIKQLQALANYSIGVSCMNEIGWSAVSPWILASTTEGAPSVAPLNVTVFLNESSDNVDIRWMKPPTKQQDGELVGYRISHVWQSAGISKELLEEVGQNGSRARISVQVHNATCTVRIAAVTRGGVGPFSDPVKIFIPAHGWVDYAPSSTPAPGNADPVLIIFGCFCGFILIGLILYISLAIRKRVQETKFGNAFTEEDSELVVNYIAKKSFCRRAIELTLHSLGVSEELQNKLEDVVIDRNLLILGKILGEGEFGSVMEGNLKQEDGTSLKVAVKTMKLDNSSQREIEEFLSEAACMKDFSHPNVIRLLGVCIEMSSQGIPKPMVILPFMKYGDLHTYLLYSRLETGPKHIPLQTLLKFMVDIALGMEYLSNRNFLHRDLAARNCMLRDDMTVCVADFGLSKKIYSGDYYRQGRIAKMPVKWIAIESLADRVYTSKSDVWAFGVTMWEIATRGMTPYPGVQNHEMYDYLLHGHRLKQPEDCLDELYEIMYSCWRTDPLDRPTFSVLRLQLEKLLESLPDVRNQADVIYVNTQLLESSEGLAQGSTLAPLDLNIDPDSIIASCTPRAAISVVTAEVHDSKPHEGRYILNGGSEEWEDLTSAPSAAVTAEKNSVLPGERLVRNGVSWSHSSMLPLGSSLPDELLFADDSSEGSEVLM"}
{"data": "Set 1", "Structure (SMILES)": "CNC(=O)c1ccc(-c2cnn3ccc(C(=O)N(CCC(=O)OCC(=O)N(C)C)c4ccc(Cl)cc4)cc23)cc1", "species": "IFN-γ knockout mice", "sample": "plasma", "route": "oral", "dose": "dose not given"}
{"time": "4 h", "plasma concentration": "not detected"}
{"time": "1 h", "plasma concentration": "not detected"}
{"time": "7 h", "plasma concentration": "not detected"}
{"data": "Set 2", "organism": "Sarcocystis neurona", "read-out": "parasite growth", "concentration": "10 µM", "setting": "secondary screen"}
{"Compound": "CNCCC(Oc1ccc(C(F)(F)F)cc1)c1ccccc1.Cl (centres unmarked)", "inhibition [%]": -30.8}
{"Compound": "CC(C)NCC(O)COc1cccc2ccccc12.Cl (centres unmarked)", "inhibition [%]": -26.5}
{"Compound": "CC(COc1ccccc1Cc1ccccc1)N1CCCCC1.O=P(O)(O)O (centres unmarked)", "inhibition [%]": 12.2}
{"Compound": "CC1Cc2ccccc2N1NC(=O)c1ccc(Cl)c(S(N)(=O)=O)c1 (centres unmarked)", "inhibition [%]": -53}
{"Compound": "N[C@@H](Cc1cc(I)c(Oc2cc(I)c(O)c(I)c2)c(I)c1)C(=O)O", "inhibition [%]": -51.6}
{"Compound": "O=C(O)c1cc(=O)c2c(OCC(O)COc3cccc4oc(C(=O)O)cc(=O)c34)cccc2o1", "inhibition [%]": -30.8}
{"data": "Set 3", "cell line": "mouse MPNST tumor cells", "technique": "high-content nuclear imaging", "item": "cell number", "concentration": "10 µM", "time": "12 h", "setting": "mean of 2 replicates", "reference": "plate mean", "direction": "higher = more cells"}
{"Compound": "COc1ccc(N(C)c2nc(C)nc3ccccc23)cc1", "nuclei count [z-score]": -3.51}
{"Compound": "CCS(=O)(=O)N(C)[C@H]1c2cc(C#N)ccc2OC(C)(C)[C@@H]1O (racemic)", "nuclei count [z-score]": -0.315}
{"Compound": "N[C@@H](C(=O)N[C@@H]1C(=O)N2C(C(=O)O)=C(Cl)CS[C@H]12)c1ccccc1", "nuclei count [z-score]": -0.952}
{"Compound": "Cc1nccn1CC1CCc2c(c3ccccc3n2C)C1=O (centres unmarked)", "nuclei count [z-score]": 0.418}
{"Compound": "CSc1ccc2c(c1)N(CCC1CCCCN1C)c1ccccc1S2 (centres unmarked)", "nuclei count [z-score]": -7.38}
{"Compound": "Cc1cc(-c2ccc(CC(=O)Nc3ccc(-c4cccnc4)cc3)cc2)ccn1", "nuclei count [z-score]": 3.81}
{"data": "Set 4", "SMILES": "Cc1ccc(NC(=O)c2ccnc(C(F)(F)F)c2)cc1-c1cc(OCCO)nc(N2CCOCC2)c1", "read-out": "binding", "concentration": "1 µM"}
{"target": "DDR1 (Homo sapiens, UniProt Q08345)", "technique": "competition with immobilised ligand", "remaining binding [%]": 0.3}
{"target": "MERTK (Homo sapiens, UniProt Q12866)", "technique": "competition with immobilised ligand", "remaining binding [%]": 89}
{"target": "EPHB1 (Homo sapiens, UniProt P54762)", "technique": "competition with immobilised ligand", "remaining binding [%]": 91}
{"target": "PRKD1 (Homo sapiens, UniProt Q15139)", "remaining binding [%]": 100}
{"target": "AKT3 (Homo sapiens, UniProt Q9Y243)", "remaining binding [%]": 100}
{"data": "Set 5", "target": "Dual specificity mitogen-activated protein kinase kinase 6 (MAP2K6, Homo sapiens, UniProt P52564)", "read-out": "enzyme activity", "action": "inhibitor", "concentration": "0.5 µM", "reference": "control", "Residues (P52564 1-334)": "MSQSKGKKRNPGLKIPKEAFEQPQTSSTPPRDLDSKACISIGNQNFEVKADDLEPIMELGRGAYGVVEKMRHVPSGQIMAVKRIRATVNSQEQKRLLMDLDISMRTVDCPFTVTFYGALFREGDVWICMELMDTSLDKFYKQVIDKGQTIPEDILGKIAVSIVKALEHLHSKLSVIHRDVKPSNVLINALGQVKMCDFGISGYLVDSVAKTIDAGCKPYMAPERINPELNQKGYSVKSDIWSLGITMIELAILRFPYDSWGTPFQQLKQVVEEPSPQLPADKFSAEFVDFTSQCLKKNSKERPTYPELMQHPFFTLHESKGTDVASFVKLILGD"}
{"SMILES": "C#Cc1cccc(Nc2ncnc3cc(OCCOC)c(OCCOC)cc23)c1", "remaining activity": "94.2%"}
{"SMILES": "CNC(=O)c1cc(Oc2ccc(NC(=O)Nc3ccc(Cl)c(C(F)(F)F)c3)cc2)ccn1", "remaining activity": "96.9%"}
{"SMILES": "Oc1ccc(-c2nc(-c3ccncc3)c(-c3ccc(F)cc3)[nH]2)cc1", "remaining activity": "109%"}
{"SMILES": "Nc1ncnc2n[nH]c(Nc3ccc(F)cc3)c12", "remaining activity": "87.6%"}
{"SMILES": "Nc1[nH]nc2nc3ccccc3nc12", "remaining activity": "100%"}
{"SMILES": "COc1ccc(C(=O)Nc2sc3c(c2C(N)=O)CCCC3)cc1OC", "remaining activity": "114%"}
{"SMILES": "O=C(CCCc1ccc(-c2ccccc2F)cc1)Nc1ccc(O)cc1", "remaining activity": "97.5%"}
{"SMILES": "Cn1sc(=O)n(Cc2ccccc2)c1=O", "remaining activity": "94.9%"}
{"SMILES": "O=C1NC(=O)C(c2cn(CCCO)c3ncccc23)=C1c1cnccn1", "remaining activity": "91.1%"}
{"SMILES": "COc1ccc(OC)c2c(=S)c3ccccc3[nH]c12", "remaining activity": "89.9%"}
{"SMILES": "Cn1c2ccccc2c2c3c(c4c5ccccc5n(CCC#N)c4c21)CNC3=O", "remaining activity": "21.1%"}
{"SMILES": "CCOC(=O)c1c(C)[nH]c(/C=C2\\C(=O)Nc3ccccc32)c1C", "remaining activity": "96.5%"}
{"SMILES": "O=C(Nc1cccc(Nc2cc(Nc3cccc(C(F)(F)F)c3)ncn2)c1)C1CC1", "remaining activity": "108%"}
{"SMILES": "Nc1ccc2ncnc(NCCc3ccc(Oc4ccccc4)cc3)c2c1", "remaining activity": "96.6%"}
{"SMILES": "O=S(=O)(c1cccc2cnccc12)N1CCCNCC1", "remaining activity": "95.6%"}
{"note": "Repeated from above (set 1):"}
{"time": "7 h", "plasma concentration": "not detected"}
{"time": "4 h", "plasma concentration": "not detected"}
{"time": "1 h", "plasma concentration": "not detected"}
